Assay results collected from several papers.
Parts stem from different laboratories: compare values within a part only. Positions count from the first letter of the parent shown.

Series 1 — technique: protein-binding microarray; molecule type: double-stranded DNA, one strand shown; matrix: in vitro; tested at: 2200 nM top; setting: 60-bp whole probe; together with: salmon DNA 0.4 mg/ml; baseline: random background probes; reading: higher = stronger binding; constant ends, left off below: GCCTAGCAC … GTCTTGATTCGCTTGACGCTGCTG
Target: Interferon regulatory factor 7, full length, phosphomimetic (IRF7, Homo sapiens, UniProt Q92985, residues 1-503, S471D/S472D/S475D/S476D/S477D/S483D/S484D/S487D)
Chain of UniProt Q92985 (whole entry, unmodified, looked up): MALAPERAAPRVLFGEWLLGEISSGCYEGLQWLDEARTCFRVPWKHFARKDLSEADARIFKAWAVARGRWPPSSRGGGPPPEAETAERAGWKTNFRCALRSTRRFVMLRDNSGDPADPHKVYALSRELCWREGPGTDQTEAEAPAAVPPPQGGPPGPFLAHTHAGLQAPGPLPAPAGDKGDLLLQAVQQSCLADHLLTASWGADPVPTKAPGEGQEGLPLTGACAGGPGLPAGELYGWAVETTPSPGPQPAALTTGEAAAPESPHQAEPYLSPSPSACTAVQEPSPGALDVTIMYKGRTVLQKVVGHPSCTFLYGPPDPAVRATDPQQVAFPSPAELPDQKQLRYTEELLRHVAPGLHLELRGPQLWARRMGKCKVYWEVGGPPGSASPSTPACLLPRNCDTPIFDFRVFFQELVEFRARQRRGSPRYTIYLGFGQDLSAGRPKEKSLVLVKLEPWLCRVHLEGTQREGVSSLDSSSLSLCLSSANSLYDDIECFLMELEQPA
Oligonucleotide | fitted relative affinity [z-score]
TCATCTCTTGTTCTCTCACTGTGCTAG | 2.12
TCATCTGTGCCTTTTTTACTGTGCTAG | 1.33
CCGCTTTTTTTTTTTTTTTTGTGCTAG | 2.05
GACGGTCTTCTTTTCCTGACGTGCTAG | 1.23
TTGGGACTGGGGTATCGGTTAGTGCTA | -0.729
TTAGATATCAGACTGGATAAGTGCTAG | -0.327
GACGGACTGCTCCTCCTGACGTGCTAG | 0.353
TCATGTTTATGTCTGGGACTGTGCTAG | 1.15
TCACTCATGGCTTTGTAACTGTGCTAG | 0.883
TCAAGTCTGAGATCCAGACTGTGCTAG | -0.0382
TCATCTTCCCCTCTCATACTGTGCTAG | 2.47

Series 2 — technique: RNA Bind-n-Seq; molecule type: RNA; matrix: in vitro; tested at: 365 nM; baseline: no-protein control; reading: higher = stronger binding
Target: RNA binding protein fox-1 homolog 2, RRM domain, GST-SBP tag (RBFOX2, Homo sapiens, UniProt O43251-10, residues 100-194)
Setting: natural RNA segment, single round, ends assumed
Constant ends, left off below: GGGAGUUCUACAGUCCGACGAUC … UGGAAUUCUCGGGUGCCAA
Target sequence (chain): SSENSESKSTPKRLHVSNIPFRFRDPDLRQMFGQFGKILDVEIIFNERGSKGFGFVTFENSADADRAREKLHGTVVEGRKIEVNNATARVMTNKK
Oligonucleotide | RBNS enrichment (R)
GCGUGUGCACAUAUGUGUGCACACAUGUGCGUGUGUGUGUUCAUGUGUGUGCAUGCUUGUGUCUUUCCACAGCUUUUUUUUUUUUUUUAAGGAUCAUCCUACUGCUAAGU | 0.678
ACGCUUGCAGUUGAAAGUGCCAGUGUCAAAGAAAGUGUUGAGAAGCUGCCUCUUCAGUGCAAAGAUGAAAAGGAACAUGCUGCUGACGGCCCCCAGCACCAAAGCUUAGC | 0.253
GGGUAAAGACGAGGGGUCAGGGUUCAACUUGACAGUGUACUUCGCUAGGAAGGAGAGGCCCUUGCCUGCUAUAACCAUGCCUAGAGUGCCUGUCCUCCAGUAUUGCACCU | 0.254
AUUUAUUUUGAUCUUUAAUUUCUCUCAGCAAUGUUGUAUAAUAUCAGAAUAUGUCUUGUACUUCUAUGGUUAAAAUUAGUACUGCUUUCUCUCGUGAAUGGAGCUGUUUU | 0.656
AGAAGCCUAGAUAACUAAUCUGCUUUUAAUCACGAUGUUUUAAUCUACCUCUGUCUCUUUAACCAUGCUGUCUCUGGACUGAGCAAGAGGGAGGAGGGAGCCUGCUCACC | 0.255
CAGCUGGUGACUUCCCUUGUAGAGUGUUUGCGUAGUGGAGUGGCUGUGGCUCACCACCCCCUUUCCCAAGUGCUUUAAUGAAGACACCUCCCUUGUGUUUCAACCAAUCA | 0.547
AGAUGAGGACAUCCUCUUUGUCUACUUGGACAGCUGACAGCAGGAGCCUGGUGCGCCUAGGCCCUCGGACCCCAUCCCCACCCCAGCCGGGCCCGCUCAGGAUGCCCUGG | 0.217
CCAUUCUGAUUCCAGUGACACUUGUCAGGAGUCAGAGCCUUGUCUGUUAGACUGGACAGCUUGUGGCAAGUAAGUUUGCCUGUAACAAGCCAGAUUUUUAUUGAUAUUGU | 0.546

Series 3 — technique: protein binding microarray; molecule type: double-stranded DNA, one strand shown; matrix: in vitro; tested at: not given; baseline: not given; reading: higher = stronger binding
Target: Histone acetyltransferase KAT6A, winged helix 2, GST fusion (KAT6A, Homo sapiens, UniProt Q92794, residues 85-181)
Setting: 8-mer, flanks averaged, mean of 2 arrays, mostly near background
Target sequence (chain): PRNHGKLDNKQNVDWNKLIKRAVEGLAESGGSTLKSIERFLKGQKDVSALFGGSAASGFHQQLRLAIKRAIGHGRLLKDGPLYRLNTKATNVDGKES
Oligonucleotide | E-score
GTCCGTAA | 0.0507
CACGCACC | 0.11
CATCATGA | -0.105
CGAGAGAG | 0.0298
AGGCATAT | 0.0451
ACGTCCTC | -0.0847
CACACGCC | 0.0637
ACCTAGTG | 0.103
CAAGGCAA | 0.0878
GTCATCAC | -0.0853
AGCGAGTG | 0.25
CAAGGCAC | 0.064
CTTTGTAA | 0.137
CTAGCTAG | 0.0933
CCCGGATA | -0.00885
ACGTGGCC | -0.185
GACCCCAA | -0.107
CTTGAGAA | -0.103
ACACCATG | -0.0709
GCCTTGCA | 0.0227

Series 4 — technique: DHFR PCA, deep sequencing; matrix: yeast; together with: (+)-ABA 0 µM; baseline: wild-type fitted maximum; reading: higher = stronger binding
Target: ABI1, truncated, D143A, DHFR fusion (Arabidopsis thaliana)
Setting: methotrexate growth selection, single substitutions
Parent: PYL1, truncated, DHFR fusion (Arabidopsis thaliana); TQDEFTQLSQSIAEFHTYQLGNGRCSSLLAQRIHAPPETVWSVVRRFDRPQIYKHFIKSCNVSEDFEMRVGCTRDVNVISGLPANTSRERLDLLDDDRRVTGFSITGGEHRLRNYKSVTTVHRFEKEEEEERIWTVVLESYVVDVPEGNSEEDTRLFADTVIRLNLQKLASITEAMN
Variant | relative binding score
V43Y | 2.79%
H16M | -0.196%
T39C | 14.5%
H110Q | 34.8%
T86S | 22.7%
R113Q | 46.2%
G148E | 4.04%
V70E | 5.47%
V161L | 64.9%
P50H | -0.366%
P37W | -3.47%
T154M | 2.32%
Q51R | 2.03%
Y53Q | 0.313%
V100F | -3.1%
G108I | -9.12%

Excerpt of the above (series 4):
Variant | relative binding score
G148E | 4.04%
V70E | 5.47%
V161L | 64.9%
P50H | -0.366%
P37W | -3.47%
T154M | 2.32%
